Experimental data pooled from the literature.
Protocols differ between the studies behind these lines. “And” joins repeats or separate records; there may be more than shown.

With C[N+](C)(C)CCO.O=C([O-])C(Cl)Cl the herbicidal inhibition was 0% (Eclipta prostrata; 15 mg/mL, 21 days, pre-emergence, greenhouse).
Cc1ccc(S(=O)(=O)n2cc3c4c2C(=O)C(NCCc2ccc(O)cc2)=CC4=NCC3)cc1 gave an IC50 of 0.159 µM (Babesia divergens; parasite growth, SYBR Green; 60 h, blood stage).
Cc1ccnc(-c2cc(C(=O)NCCCCCC(=O)N[C@@H](CCCNC(=N)N)C(=O)N[C@@H](CCCNC(=N)N)C(=O)N[C@@H](Cc3c[nH]c4ccccc34)C(=O)N[C@@H](Cc3c[nH]c4ccccc34)C(=O)N[C@@H](CCCNC(=N)N)C(=O)N[C@@H](Cc3c[nH]c4ccccc34)C(=O)N[C@@H](Cc3c[nH]c4ccccc34)C(=O)N[C@@H](CCCNC(=N)N)C(=O)N[C@@H](CCCNC(=N)N)C(N)=O)ccn2)c1 (stereo in doubt) — result for “log10 CFU reduction”: “no effect” (Acinetobacter baumannii; colony counting; resistant; concentration not given, light irradiation; reference: non-irradiated).
With C=C(NC(=O)c1csc(-c2nc3c(cc2O)-c2nc(cs2)C(=O)NC(C(C)O)C(=O)NC(=C(C)OC)c2nc(cs2)C(=O)NC2c4nc(cs4)C(=O)NC(COC(=O)c4c5c6c(cccc6n4O)COC(=O)C(OC4CC(C)(O)C(N(C)C)C(C)O4)C2OC5)c2nc-3cs2)n1)C(N)=O (centres unmarked) the post-antibiotic effect was < 0.6 h (Staphylococcus aureus; MRSA ATCC 43300; 1/2 × MIC).
For C=C[C@]1(C)C[C@@H](OC(=O)CSc2ccc(NC(=O)c3ccco3)cc2)[C@]2(C)[C@H](C)CC[C@]3(CCC(=O)[C@H]32)[C@@H](C)[C@@H]1O, “lung mycoplasma count” read 3.88 log10 CFU/mL and 4.23 log10 CFU/mL and 4.84 log10 CFU/mL and 4.1 log10 CFU/mL and 4.25 log10 CFU/mL and 3.33 log10 CFU/mL and 4.57 log10 CFU/mL (Mycoplasma gallisepticum; infected chickens, lung; intramuscular, 40 mg/kg daily x3, 72 h).
CCCCNCCO.O=C(O)C(Cl)Cl gave a herbicidal inhibition of 0% (Eclipta prostrata; 15 mg/mL, 21 days, pre-emergence, greenhouse).
CCCCCCCCCC(=O)N[C@@H](Cc1c[nH]c2ccccc12)C(=O)N[C@H](CC(N)=O)C(=O)N[C@@H](CC(=O)O)C(=O)N[C@@H]1C(=O)NCC(=O)N[C@@H](CCCNC(=O)OC2/C=C/CCCCC2)C(=O)N[C@@H](CC(=O)O)C(=O)N[C@H](C)C(=O)N[C@@H](CC(=O)O)C(=O)NCC(=O)N[C@H](CO)C(=O)N[C@@H]([C@H](C)CC(=O)O)C(=O)N[C@@H](CC(=O)c2ccccc2N)C(=O)O[C@@H]1C (some centres unmarked): “peak heat flow time” 0 h (Staphylococcus aureus; planktonic bacterial growth, isothermal microcalorimetry; MSSA; 1.0 µg/mL, 24 h, 37 °C, with: TAG hydrogel).
Under plaque number, O=C(Oc1cc(OC(=O)c2cc(O)c(O)c(O)c2)c2ccccc2c1)c1cc(O)c(O)c(O)c1 is recorded as “decreased” (herpes simplex virus 2; 5 to 20 µM, HIV-1 co-infection).
CC(C)(C)NCC(SS(=O)(=O)O)c1ccccc1 (centres unmarked): “liver weight decrease” 17% (Schistosoma mansoni; perfusion day 44; infected Swiss Webster mice; 600 mg/kg single dose, 1056 h, dosed day 1 post-infection; reference: vehicle control).
The IC50 of CNCc1ccc2c(c1)C[C@H](CNC(=N)N)[C@H]2NC(=O)C(=O)Nc1ccc(Cl)c(F)c1 is reported as 6.64 µM (HIV-1; viral infection; TZM-bl, CRF02_AG 235-47 Env pseudovirus).
With CC(O)CNCC(C)O.O=C(O)C(Cl)Cl (centres unmarked) the herbicidal inhibition was 0% (Eclipta prostrata; 15 mg/mL, 21 days, post-emergence, greenhouse).

A few entries again:
Cc1ccc(S(=O)(=O)n2cc3c4c2C(=O)C(NCCc2ccc(O)cc2)=CC4=NCC3)cc1 gave an IC50 of 0.159 µM (Babesia divergens; parasite growth, SYBR Green; 60 h, blood stage).
